Published values collected from several papers.
Lines come from different studies, so protocols differ. ± marks the error that the study gave.
relA residues 53-446: relA, residues 53-446 (Mycobacterium tuberculosis, UniProt P9WHG9)
UniProt P9WHG9, sequence (53-446, looked up): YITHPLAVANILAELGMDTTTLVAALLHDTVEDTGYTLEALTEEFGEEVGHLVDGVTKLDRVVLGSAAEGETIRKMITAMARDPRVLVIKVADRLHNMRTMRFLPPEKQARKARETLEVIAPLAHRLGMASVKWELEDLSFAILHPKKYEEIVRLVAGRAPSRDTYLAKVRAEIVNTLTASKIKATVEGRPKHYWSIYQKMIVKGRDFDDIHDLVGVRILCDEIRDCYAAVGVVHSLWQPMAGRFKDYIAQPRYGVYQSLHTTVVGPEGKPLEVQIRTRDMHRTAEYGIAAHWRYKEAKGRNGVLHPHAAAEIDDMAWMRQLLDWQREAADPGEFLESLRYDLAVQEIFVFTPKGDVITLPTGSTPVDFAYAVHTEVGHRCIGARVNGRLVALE
CNR1: Cannabinoid receptor 1 (CNR1, Homo sapiens, UniProt P21554)
UniProt P21554, sequence (whole entry, unmodified, looked up): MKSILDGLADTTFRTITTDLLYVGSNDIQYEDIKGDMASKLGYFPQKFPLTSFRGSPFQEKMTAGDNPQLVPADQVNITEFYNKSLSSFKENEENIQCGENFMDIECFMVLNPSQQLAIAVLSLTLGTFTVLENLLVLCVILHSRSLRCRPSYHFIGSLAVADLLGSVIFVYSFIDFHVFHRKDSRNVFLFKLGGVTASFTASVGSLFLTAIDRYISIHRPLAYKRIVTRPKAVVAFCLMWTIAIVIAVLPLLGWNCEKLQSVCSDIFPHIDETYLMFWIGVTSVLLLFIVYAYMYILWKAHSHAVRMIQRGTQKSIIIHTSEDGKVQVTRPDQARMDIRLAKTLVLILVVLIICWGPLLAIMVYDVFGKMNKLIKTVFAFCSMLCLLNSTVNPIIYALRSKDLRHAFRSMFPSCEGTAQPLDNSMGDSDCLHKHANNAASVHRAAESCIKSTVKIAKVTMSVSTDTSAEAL
HCK Q523E/Q524E/Q525I: Tyrosine-protein kinase HCK (HCK, Homo sapiens, UniProt P08631, Q523E/Q524E/Q525I)
UniProt P08631, sequence (whole entry, unmodified, looked up): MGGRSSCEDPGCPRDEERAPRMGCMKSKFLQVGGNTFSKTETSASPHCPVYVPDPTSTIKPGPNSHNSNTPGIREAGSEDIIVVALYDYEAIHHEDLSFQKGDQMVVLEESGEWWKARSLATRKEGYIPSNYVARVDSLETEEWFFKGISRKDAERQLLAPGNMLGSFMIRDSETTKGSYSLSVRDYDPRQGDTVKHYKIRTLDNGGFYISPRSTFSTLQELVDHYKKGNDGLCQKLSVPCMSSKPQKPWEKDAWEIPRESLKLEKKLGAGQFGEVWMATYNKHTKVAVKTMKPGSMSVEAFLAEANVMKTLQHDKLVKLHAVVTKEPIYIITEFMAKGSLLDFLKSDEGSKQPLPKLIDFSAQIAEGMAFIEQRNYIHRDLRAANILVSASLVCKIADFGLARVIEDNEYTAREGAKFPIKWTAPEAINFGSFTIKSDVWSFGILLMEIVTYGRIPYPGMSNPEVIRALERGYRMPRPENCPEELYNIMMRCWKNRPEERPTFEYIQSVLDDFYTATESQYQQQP
UniProt P41143, sequence (whole entry, unmodified, looked up): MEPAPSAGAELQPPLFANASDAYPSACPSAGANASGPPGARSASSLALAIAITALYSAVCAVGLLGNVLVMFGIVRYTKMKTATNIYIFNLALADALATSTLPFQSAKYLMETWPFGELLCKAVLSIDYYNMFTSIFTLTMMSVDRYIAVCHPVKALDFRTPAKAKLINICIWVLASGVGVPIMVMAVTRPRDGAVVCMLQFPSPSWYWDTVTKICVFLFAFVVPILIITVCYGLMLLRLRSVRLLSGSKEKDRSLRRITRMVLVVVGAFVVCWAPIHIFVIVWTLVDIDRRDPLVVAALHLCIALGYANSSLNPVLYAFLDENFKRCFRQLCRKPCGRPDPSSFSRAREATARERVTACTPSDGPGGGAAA
UniProt P09958, sequence (whole entry, looked up): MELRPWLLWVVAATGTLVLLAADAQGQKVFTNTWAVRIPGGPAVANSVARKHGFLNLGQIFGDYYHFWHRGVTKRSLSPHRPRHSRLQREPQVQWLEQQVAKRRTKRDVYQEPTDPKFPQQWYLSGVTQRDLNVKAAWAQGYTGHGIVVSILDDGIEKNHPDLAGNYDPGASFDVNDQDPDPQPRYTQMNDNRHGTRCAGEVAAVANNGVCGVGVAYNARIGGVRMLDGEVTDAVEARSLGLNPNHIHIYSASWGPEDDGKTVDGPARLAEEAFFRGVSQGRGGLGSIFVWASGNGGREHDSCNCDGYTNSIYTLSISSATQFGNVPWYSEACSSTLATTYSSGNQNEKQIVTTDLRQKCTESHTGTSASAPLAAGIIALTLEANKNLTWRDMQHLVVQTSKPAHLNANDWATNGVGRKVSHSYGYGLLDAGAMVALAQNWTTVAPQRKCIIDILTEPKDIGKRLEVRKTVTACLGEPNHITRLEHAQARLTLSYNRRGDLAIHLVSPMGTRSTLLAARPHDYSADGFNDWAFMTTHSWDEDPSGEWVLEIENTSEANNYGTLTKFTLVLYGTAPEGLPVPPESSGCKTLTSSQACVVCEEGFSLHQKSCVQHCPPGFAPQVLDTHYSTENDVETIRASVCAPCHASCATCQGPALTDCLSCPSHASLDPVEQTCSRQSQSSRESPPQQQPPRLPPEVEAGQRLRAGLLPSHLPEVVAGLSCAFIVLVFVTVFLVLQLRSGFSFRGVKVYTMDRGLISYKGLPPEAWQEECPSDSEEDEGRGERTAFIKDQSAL
UniProt P13128, sequence (whole entry, looked up): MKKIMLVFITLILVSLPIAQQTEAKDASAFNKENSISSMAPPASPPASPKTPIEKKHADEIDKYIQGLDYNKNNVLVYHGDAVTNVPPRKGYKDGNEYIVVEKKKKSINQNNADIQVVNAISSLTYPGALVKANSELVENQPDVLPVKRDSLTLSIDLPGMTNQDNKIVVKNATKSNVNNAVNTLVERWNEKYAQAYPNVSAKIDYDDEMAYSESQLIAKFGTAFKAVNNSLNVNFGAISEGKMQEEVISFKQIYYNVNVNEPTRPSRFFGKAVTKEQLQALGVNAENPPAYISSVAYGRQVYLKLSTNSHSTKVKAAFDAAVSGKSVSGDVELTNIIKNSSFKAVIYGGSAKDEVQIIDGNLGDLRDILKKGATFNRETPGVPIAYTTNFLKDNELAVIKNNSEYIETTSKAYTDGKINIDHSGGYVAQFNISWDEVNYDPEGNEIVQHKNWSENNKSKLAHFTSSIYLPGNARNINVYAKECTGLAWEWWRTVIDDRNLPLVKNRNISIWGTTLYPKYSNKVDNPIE
UniProt P18089, sequence (whole entry, looked up): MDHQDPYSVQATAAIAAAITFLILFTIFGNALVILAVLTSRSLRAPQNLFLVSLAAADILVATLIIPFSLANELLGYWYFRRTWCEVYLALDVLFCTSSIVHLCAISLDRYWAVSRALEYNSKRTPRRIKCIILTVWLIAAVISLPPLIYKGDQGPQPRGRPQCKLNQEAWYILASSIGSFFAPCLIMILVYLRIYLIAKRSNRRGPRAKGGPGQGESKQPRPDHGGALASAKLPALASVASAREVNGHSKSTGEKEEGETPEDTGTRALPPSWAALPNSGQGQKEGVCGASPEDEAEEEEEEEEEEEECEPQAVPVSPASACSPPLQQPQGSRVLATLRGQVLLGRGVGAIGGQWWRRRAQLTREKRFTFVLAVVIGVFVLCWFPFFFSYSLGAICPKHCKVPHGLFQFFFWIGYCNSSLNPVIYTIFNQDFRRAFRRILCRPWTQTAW
UniProt P30872, sequence (whole entry, looked up): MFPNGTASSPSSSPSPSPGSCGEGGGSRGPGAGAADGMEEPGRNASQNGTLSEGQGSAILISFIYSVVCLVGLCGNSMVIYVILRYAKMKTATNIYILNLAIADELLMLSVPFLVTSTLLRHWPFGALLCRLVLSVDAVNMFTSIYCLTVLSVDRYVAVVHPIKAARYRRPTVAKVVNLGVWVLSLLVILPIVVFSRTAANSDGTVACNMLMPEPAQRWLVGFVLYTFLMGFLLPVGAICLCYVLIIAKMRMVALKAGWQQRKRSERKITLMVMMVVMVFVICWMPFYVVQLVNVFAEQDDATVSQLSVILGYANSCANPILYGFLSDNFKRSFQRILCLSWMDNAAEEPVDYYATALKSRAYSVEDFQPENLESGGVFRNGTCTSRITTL
UniProt P14060, sequence (whole entry, looked up): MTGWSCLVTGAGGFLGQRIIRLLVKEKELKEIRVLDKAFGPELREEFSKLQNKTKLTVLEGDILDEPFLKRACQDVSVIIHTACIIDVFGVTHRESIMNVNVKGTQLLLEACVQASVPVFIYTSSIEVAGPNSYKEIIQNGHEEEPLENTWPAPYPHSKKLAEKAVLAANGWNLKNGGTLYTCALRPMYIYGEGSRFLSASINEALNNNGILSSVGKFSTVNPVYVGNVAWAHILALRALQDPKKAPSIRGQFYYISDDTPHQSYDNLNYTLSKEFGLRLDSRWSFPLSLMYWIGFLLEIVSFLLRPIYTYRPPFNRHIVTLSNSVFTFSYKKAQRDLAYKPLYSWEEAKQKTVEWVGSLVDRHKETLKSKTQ
UniProt Q01959, sequence (whole entry, unmodified, looked up): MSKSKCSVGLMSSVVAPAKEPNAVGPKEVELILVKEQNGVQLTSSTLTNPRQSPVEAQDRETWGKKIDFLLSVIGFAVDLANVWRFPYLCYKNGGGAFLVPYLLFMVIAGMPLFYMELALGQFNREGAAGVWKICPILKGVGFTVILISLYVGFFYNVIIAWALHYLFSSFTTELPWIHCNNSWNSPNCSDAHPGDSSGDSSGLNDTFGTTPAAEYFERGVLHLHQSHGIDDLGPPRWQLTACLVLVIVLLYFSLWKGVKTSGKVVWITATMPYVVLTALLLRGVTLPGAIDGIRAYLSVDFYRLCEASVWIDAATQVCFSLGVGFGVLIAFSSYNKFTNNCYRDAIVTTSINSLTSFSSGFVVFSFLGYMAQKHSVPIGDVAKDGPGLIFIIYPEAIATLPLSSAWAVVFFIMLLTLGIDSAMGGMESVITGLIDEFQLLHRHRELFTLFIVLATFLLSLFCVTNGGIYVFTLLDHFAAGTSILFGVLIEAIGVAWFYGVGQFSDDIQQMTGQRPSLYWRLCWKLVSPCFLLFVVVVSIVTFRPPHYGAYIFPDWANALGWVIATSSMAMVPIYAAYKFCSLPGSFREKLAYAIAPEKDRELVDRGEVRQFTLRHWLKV

Structure (SMILES) | target | test | conditions | endpoint | result
C=CCNC(=O)N1Cc2ccc(NC(=O)NC3CC3c3ccccc3)cc2C1 (stereo not drawn) | relA residues 53-446 | enzyme activity, inhibitor, fluorescence polarization |  | IC50 | 12600 nM
CSCC[C@H](NC(=O)[C@@H]1CSSC[C@H](NC(=O)[C@H](CCCCN)NC(=O)[C@H](Cc2ccc(O)cc2)NC(=O)CNC(=O)[C@@H](N)CC(C(=O)O)C(=O)O)C(=O)N[C@@H](C(C)C)C(=O)N[C@H](Cc2c[nH]c3ccccc23)C(=O)N[C@@H](CCCCN)C(=O)N[C@@H]([C@@H](C)O)C(=O)N1)C(=O)N1C[C@H](O)C[C@H]1C(=O)N[C@@H](C)C(=O)O | Somatostatin receptor type 1 (SSTR1, Homo sapiens, UniProt P30872) | β-arrestin recruitment, agonist |  | EC50 | 2880 nM
COc1ccccc1C(C[N+](=O)[O-])c1c(-c2ccccc2)[nH]c2ccccc12 (stereo not drawn) | Cannabinoid receptor 1 (CNR1, Homo sapiens, UniProt P21554, L165A) | G protein activation, agonist, BRET |  | EC50 | 280 nM
CCOC(=O)C=CC(CC1CCNC1=O)NC(=O)C(CC(C)C)NC(=O)C(NC(=O)OCc1ccccc1)C(C)OC(C)(C)C (stereo not drawn) | Replicase polyprotein 1ab, main protease (rep, Human coronavirus NL63, UniProt P0C6X5) | viral replication |  | EC50 | 4920 nM
CC(C)(C)n1nc(-c2ccc(Cl)cc2)c2c(N)ncnc21 | Proto-oncogene tyrosine-protein kinase Src (SRC, Gallus gallus, UniProt P00523, Y527F) | enzyme activity, inhibitor |  | Ki | 43 nM
CCCCCn1cc(C(=O)c2ccc3ccccc3c2)c2ccccc21 | CNR1 | Gαi1 activation, agonist, BRET |  | EC50 | 74.1 nM
CC(C)n1nc(-c2ccc3cc(OCc4ccccc4)ccc3c2)c2c(N)ncnc21 | HCK Q523E/Q524E/Q525I | enzyme activity, inhibitor |  | Ki | 60 nM
CCCCCn1cc(C(=O)c2ccc3c(c2)CC(C)(C)C3)c2ccccc21 | CNR1 | G protein activation, agonist, BRET |  | EC50 | 66.1 nM
C=CC(=O)N1CCC[C@@H](n2nc(-c3ccc(Cl)cc3)c3c(N)ncnc32)C1 | Tyrosine-protein kinase HCK (HCK, Homo sapiens, UniProt P08631, S340C) |  |  | Ki | < 6 nM
Cc1ccc2c(C(C[N+](=O)[O-])c3cccs3)c(-c3ccccc3)[nH]c2c1 (stereo not drawn) | Cannabinoid receptor 1 (CNR1, Homo sapiens, UniProt P21554, V171A) | β-arrestin recruitment, agonist, luciferase |  | EC50 | 210 nM
CC[C@H](C)[C@H](NC(=O)[C@H](CC(C)C)NC(=O)[C@H](CC(=O)O)NC(=O)[C@H](CCC(=O)O)NC(=O)[C@@H](NC(=O)[C@@H]1CC=NN1C(=O)[C@H](C)NC(=O)[C@H](CC(=O)O)NC(=O)[C@H](CC(=O)O)NC(=O)CNC(=O)[C@@H]1CCCN1C(=O)[C@H](Cc1ccc(O)cc1)NC(=O)[C@@H]1CC=NN1C(=O)[C@@H]1CCCN1C(=O)[C@@H]1CC=NN1C(=O)[C@H](CO)NC(=O)[C@@H]1CCCN1C(=O)CN)C(C)C)C(=O)N[C@@H](CCCNC(=N)N)C(=O)N[C@@H](Cc1ccccc1)C(=O)N[C@@H](Cc1ccc(O)cc1)C(=O)N[C@@H](CC(=O)O)C(=O)N[C@@H](CC(N)=O)C(=O)N[C@@H](CC(C)C)C(=O)N[C@@H](CCC(N)=O)C(=O)N[C@@H](CCC(N)=O)C(=O)N[C@@H](Cc1ccc(O)cc1)C(=O)N[C@@H](CC(C)C)C(=O)N[C@@H](CC(N)=O)C(=O)N[C@H](C(=O)N[C@H](C(=O)N[C@H](C(=O)N[C@@H](CCCNC(=N)N)C(=O)N[C@@H](Cc1c[nH]cn1)C(=O)N[C@@H](CCCNC(=N)N)C(=O)N[C@@H](Cc1ccc(O)cc1)C(N)=O)[C@@H](C)O)C(C)C)C(C)C | avian pancreatic polypeptide dimer | monomer-dimer association, sedimentation equilibrium ultracentrifugation | pH 8.0, 25 °C | Kd | 58200 nM
CCCCCn1cc(C(=O)c2cccc3ccccc23)c2ccccc21 | CNR1 | GαoA activation, agonist, BRET |  | EC50 | 26.3 nM
CCCc1ccc(-c2cccc(-c3nc4ccc5cc(C(=O)O)cc(O)c5c4[nH]3)c2)cc1 | relA residues 53-446 | enzyme activity, inhibitor, fluorescence polarization |  | IC50 | 3980 nM
O=[N+]([O-])CC(c1ccco1)c1c(-c2ccccc2)[nH]c2ccccc12 (stereo not drawn) | Cannabinoid receptor 1 (CNR1, Homo sapiens, UniProt P21554, I245A) | G protein activation, agonist, BRET |  | EC50 | 1270 nM
CCC[C@@H](C(=O)c1ccccc1)N1CCCC1 | Sodium-dependent dopamine transporter (SLC6A3, Homo sapiens, UniProt Q01959, V152I) | transporter uptake, inhibitor, radiometric |  | Ki | 16 nM
C[C@]12CC[C@H](O)CC1=CC[C@@H]1[C@@H]2CC[C@]2(C)C(=O)CC[C@@H]12 | 3 beta-hydroxysteroid dehydrogenase/Delta 5-->4-isomerase type 1 (HSD3B1, Homo sapiens, UniProt P14060) | binding, SPR |  | Kd | 3460 nM
CC(C)n1nc(-c2ccc3cc(OCc4cccc(Cl)c4)ccc3c2)c2c(N)ncnc21 | Tyrosine-protein kinase HCK (HCK, Homo sapiens, UniProt P08631, Y522F) |  |  | Ki | 1340 nM
Cc1sc2c(c1C)C(c1ccc(Cl)cc1)=N[C@@H](CC(=O)OC(C)(C)C)c1nnc(C)n1-2 | non-BET bromodomains |  |  | Kd | ≥ 24000 nM
CC(=O)NC1C(OC2C(CO)OC(OC3C(CO)OC(O)C(O)C3O)C(O)C2OC2(C(=O)O)CC(O)C(NC(C)=O)C(C(O)C(CO)OC3(C(=O)O)CC(O)C(NC(C)=O)C(C(O)C(CO)OC4(C(=O)O)CC(O)C(NC(C)=O)C(C(O)C(O)CO)O4)O3)O2)OC(CO)C(O)C1O (stereo not drawn) | hly, domain 4 (Listeria monocytogenes, UniProt P13128) | binding |  | Kd | 10.4 nM
CCCCCn1cc(C(=O)c2cccc3c2CC(C)(C)C3)c2ccccc21 | Cannabinoid receptor 1 (CNR1, Homo sapiens, UniProt P21554, F174A) | G protein activation, agonist, BRET |  | EC50 | 631 nM
Nc1ncnc2c1c(-c1ccc(Oc3ccccc3)cc1)nn2C1CCCC1 | HCK Q523E/Q524E/Q525I | enzyme activity, inhibitor |  | Ki | 17 nM
CCN(CC)C(=O)c1ccc(C(c2cccc(O)c2)N2CC(C)N(Cc3ccccc3)CC2C)cc1 (stereo not drawn) | Delta-type opioid receptor (OPRD1, Homo sapiens, UniProt P41143, G73V) |  |  | Ki | 0.26 ± 0.02 nM
CC(C)CC(C(=O)N1CC2(CC1C#N)C(=O)Nc1ccccc12)N(C)C(=O)c1cc2c(F)cc(F)c(F)c2[nH]1 (stereo not drawn) | Furin (FURIN, Homo sapiens, UniProt P09958) | enzyme activity, inhibitor |  | IC50 | > 100000 nM
CCN(CC)C(=O)[C@@H]1C=C2c3cccc4c3c(cn4C(=O)c3ccco3)C[C@H]2N(C)C1 | Alpha-2B adrenergic receptor (ADRA2B, Homo sapiens, UniProt P18089) | ligand displacement, radioligand |  | Ki | > 10000 nM

Some of these lines once more:
Structure (SMILES) | target | test | conditions | endpoint | result
CCCCCn1cc(C(=O)c2ccc3ccccc3c2)c2ccccc21 | CNR1 | Gαi1 activation, agonist, BRET |  | EC50 | 74.1 nM
